Results from different studies.
Parts stem from different laboratories: compare values within a part only.

Block 1 — method: RNA Bind-n-Seq; form: RNA; matrix: in vitro; tested at: 365 nM; reference: no-protein control; direction: higher = stronger binding
Target: RNA binding protein fox-1 homolog 2, RRM domain, GST-SBP tag (RBFOX2, Homo sapiens, UniProt O43251-10, residues 100-194)
Setting: natural RNA segment, single round, ends assumed
All sequences stand within: GGGAGUUCUACAGUCCGACGAUC … UGGAAUUCUCGGGUGCCAA
Target sequence (chain): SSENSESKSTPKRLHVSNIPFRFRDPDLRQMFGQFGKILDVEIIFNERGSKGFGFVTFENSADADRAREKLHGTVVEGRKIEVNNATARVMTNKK
Sequence	RBNS enrichment (R)
GAACAUGAAGAAAGAGCCUUUGGGAGAUUCCUGGCUUUCCAUUAGGGCUGAAAGUACAACGGUUCUUGGUUGGCUUUGCCUCGUGUUUAUAAAACUAGCUACUAUUCUUC	0.773
GUGAAUGGGAAUUAGCAAUGCACGCUUGCAGGCUCUUUUUCCAGGAACCAGGCUGUAACAUUGACCGGGGAACCUCUUCAUUCCCUGACAUACUAAAUUGGUCAAUUUUG	0.491
GUAAGGGUCCUCUGUUUUUGAUUCACCCAAAAGUCUGCAAACCCCCAGCAUCUCUGCUCUGGCCAGCCCUGAUCUGAAGCCUGUGUCUACUAAGAGGGAUGCCCAGUGCC	0.447
UCUGGACCACCCAGGGCCUCCACUGCCACCUUGGCUGGCAAGGGAGAAAUGUGUUGUGUUGUCUUAGCUUUAAAACAGUCACAGUUCUUGCUCUAUCAUAGAUGAACAAA	0.286
CCCUAUUCACAACCAGUGCACAGUUUGACACAGUGGCCUCAGGUUCACAGUGCACCAUGUCACUGUGCUAUCCUACGAAAUCAUUUGUUUCUAAGUUGUGUUUAUUCCUG	0.444
GGAAUAGUGCAACACCCGAGGCCCCAGUCCUGCACCGAGGCUGACCCCAGACCUGCACUGCCUUUGAGCUGGGUCCUAAUUGCACAUGGCUUGUGACGAAUGAAUCUUGC	3.08
CCUGGUCAGCUCCUCACGUAAUUGGGGGUGGAGGGAAAGCAUGGUGGUGCCCUGGGCCGUCCCUGUGUGAACGCAGGCAAAAGCAGCCCAGUCCCCCUCACUGCUUGAGC	0.518
AAUCCUACUUCUCCCCAACAUAGAAGUAGACAUUUCUCAUCCCAUUCUUUGUAAAUGUCCACACCCUACCGCAAAGUCUGGGGAGUCUUCUGGCUGGAAUGCUGUUCACG	0.379

Block 2 — method: protein-binding microarray; form: double-stranded DNA, one strand shown; matrix: in vitro; tested at: not given; direction: higher = stronger binding
Target: Protein C-ets-1 (ETS1, Homo sapiens, UniProt P14921, residues 1-441, full length assumed)
Setting: k-mer, scored over probes, only values ≥0.25
Target sequence (chain): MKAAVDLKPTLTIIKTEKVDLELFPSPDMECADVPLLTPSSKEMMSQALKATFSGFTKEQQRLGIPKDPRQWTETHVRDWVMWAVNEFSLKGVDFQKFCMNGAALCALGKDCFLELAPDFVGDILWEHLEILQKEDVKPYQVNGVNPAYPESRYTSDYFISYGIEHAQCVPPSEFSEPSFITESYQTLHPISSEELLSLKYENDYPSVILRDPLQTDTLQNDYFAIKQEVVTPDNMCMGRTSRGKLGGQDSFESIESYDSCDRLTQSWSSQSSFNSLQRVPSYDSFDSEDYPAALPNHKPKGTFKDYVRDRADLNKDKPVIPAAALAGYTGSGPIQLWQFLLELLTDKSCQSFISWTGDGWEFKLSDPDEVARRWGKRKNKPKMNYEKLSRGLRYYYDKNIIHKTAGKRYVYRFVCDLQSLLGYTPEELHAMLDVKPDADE
Sequence	E-score
AAGGAAGA	0.326
CGGAAATC	0.475
CCGGATGA	0.466
CGTCGGAA	0.284
GCGACGGA	0.333
CCGGAGGA	0.325
GGACGGGA	0.289
AATCCCCG	0.308
CGGATATA	0.457
GGAATTCC	0.343
CGGATTTA	0.278
GCGTTTCC	0.424
ACGACATC	0.264
TAGCAGGA	0.267
AGCGGATC	0.277
AGTTCCGC	0.406
CGGAAACG	0.477
ATCTCCGG	0.339
CGGATGAG	0.43
GGTGGGAA	0.279
ATCCCGTC	0.273
CCGGCCGG	0.394
ACGGATAA	0.323

Block 3 — method: RNA Bind-n-Seq; form: RNA; matrix: in vitro; tested at: 200 nM; setting: whole 134-nt RNA, ends assumed; added: 150 mM LiCl; reference: input library; direction: higher = stronger binding; each molecule: 7-deaza-guanosine replaces G
Target: Ras GTPase-activating protein-binding protein 1, full length (G3BP1, Homo sapiens, UniProt Q13283)
Chain of UniProt Q13283 (whole entry, looked up): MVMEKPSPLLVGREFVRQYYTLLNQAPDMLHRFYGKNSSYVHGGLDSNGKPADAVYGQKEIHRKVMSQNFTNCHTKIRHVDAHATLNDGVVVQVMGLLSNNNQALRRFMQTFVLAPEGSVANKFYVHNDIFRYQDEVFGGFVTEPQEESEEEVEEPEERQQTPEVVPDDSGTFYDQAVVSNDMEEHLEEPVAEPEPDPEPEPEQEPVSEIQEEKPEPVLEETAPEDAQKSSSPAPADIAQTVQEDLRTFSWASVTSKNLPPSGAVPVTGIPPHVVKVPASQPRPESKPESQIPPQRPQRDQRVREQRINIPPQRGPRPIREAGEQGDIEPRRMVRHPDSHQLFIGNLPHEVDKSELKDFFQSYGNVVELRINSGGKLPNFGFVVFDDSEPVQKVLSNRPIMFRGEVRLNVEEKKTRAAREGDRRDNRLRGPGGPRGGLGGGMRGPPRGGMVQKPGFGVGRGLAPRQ
All sequences stand within: GGGAGUUCUACAGUCCGACGAUC … UGGAAUUCUCGGGUGUCAAGG
Sequence	log2 enrichment
CCUCAAGUCCUGUGCUACACAUCGUAUGUACCGAAUCGGGGAGGAGGGAGGGGAAAGUAUUAUGUUACGCCGUUCGGAUCUGCACUUCCA	0.078
UUCUGCACCUCUGCUACCUAAAGAAGACCCAAUCUUCACAUAUUUAUCUAAACGGUUAGGAAGGAGUAUAGAUGACAUAGGUCACCUCAU	-0.318
CUGUGCUACACAUCGUAUGUACCGAAUCGGGUUUUUUUGGUUUUUUUGGGGUUUUUUUGGGGAAAGUAUUAUGUUACGCCGUUCGGAUCU	1.4
GCAGGAAGUAAAAACACAUGGAAAUGCUUCGGAUAGUGGCAGGGGUGGGGGUUGCUAAGGAAAGGGUGGGAUGGGAGUGGGUAAAGAGUU	0.117
CUCAAGUCCUGUGCUACACAUCGUAUGUACCGAAUCGGAAGGGGAAGGGAAGGGAAAGUAUUAUGUUACGCCGUUCGGAUCUGCACUUCC	-0.0129
UGGCCCUGGUGGCAUGCGGGGAGGAAGAGGUGGCCUCAUGGAUCGUGGUGGUCCCGGUGGAGUGUUCAGAGGUGGCCGUGGUGGAGACAG	0.209
CCUCAAGUCCUGUGCUACACAUCGUAUGUACCGAAUCGGCGGGGCGGGCGGGAAAGUAUUAUGUUACGCCGUUCGGAUCUGCACUUCCAG	-0.0741
UAACUUUAGAGGAGGAUCUGAUGGAUAUGGCAGUGGACGUGGAUUUGGGGAUGGCUAUAAUGGGUAUGGAGGAGUACCUGGAGGUGGCAA	-0.569

Block 4 — method: universal PBM; form: double-stranded DNA, one strand shown; matrix: in vitro; tested at: 600 nM; direction: higher = stronger binding
Target: Sal-like protein 4, full length isoform A (SALL4, Homo sapiens, UniProt Q9UJQ4, residues 1-1053)
Chain of UniProt Q9UJQ4 (whole entry, looked up): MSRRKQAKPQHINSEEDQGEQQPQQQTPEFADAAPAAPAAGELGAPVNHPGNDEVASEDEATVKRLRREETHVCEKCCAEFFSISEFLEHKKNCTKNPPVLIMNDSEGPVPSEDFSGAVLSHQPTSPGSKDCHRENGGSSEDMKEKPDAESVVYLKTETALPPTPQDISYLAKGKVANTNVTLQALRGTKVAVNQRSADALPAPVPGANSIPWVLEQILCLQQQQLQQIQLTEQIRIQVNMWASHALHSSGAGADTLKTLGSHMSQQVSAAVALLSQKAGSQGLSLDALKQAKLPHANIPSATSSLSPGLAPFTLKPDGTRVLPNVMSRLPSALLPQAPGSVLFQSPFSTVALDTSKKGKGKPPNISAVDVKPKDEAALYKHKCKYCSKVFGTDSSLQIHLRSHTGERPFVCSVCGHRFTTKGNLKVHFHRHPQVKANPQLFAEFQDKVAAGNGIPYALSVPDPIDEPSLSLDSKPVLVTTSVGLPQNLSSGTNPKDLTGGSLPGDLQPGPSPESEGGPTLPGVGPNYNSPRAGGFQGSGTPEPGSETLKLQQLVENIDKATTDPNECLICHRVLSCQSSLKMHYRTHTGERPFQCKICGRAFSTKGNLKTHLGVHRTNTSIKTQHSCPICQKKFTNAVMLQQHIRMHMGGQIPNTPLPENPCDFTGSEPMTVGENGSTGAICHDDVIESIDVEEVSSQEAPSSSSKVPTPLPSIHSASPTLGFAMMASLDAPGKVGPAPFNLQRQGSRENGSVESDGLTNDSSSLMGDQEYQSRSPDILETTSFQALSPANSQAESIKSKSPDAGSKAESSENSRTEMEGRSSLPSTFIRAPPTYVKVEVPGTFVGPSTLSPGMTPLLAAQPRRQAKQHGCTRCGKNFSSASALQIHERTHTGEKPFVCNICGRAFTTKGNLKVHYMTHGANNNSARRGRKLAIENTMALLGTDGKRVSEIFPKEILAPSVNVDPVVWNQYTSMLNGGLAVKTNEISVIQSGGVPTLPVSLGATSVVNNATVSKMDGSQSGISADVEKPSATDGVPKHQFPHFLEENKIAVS
Setting: 8-mer, flanks averaged, mean of replicates
Sequence	E-score
AATGTTGT	0.235
CGCCCACG	-0.312
ACAAGTAC	0.08
CACGACCG	-0.338
AAAATAAG	0.291
GTACAGGA	-0.0676
GAAGGGGA	-0.213
ATCCCGAA	-0.0507
ACGCGGTC	-0.214
GACTGCAA	-0.0832
CCCAGTAA	-0.0203
ATGGATGC	0.0787
CTTAGTTC	-0.0253
CCTTTACC	-0.114
AGCTAGGG	-0.154
AAGCAAGT	0.0633
ACTTACAG	0.0996
ATACTTAC	0.248
ATAAAGTG	0.283
ATCTCAAG	0.0689
CAGTGTAG	0.0307
GGATCCCA	-0.208
CTTGTTGC	0.051
CGGGTACG	-0.342
ACATAAGA	0.283

Some of these lines once more (block 4):
Sequence	E-score
GTACAGGA	-0.0676
GAAGGGGA	-0.213
ATCCCGAA	-0.0507
ACGCGGTC	-0.214
GACTGCAA	-0.0832
CCCAGTAA	-0.0203
ATGGATGC	0.0787
CTTAGTTC	-0.0253
